Assay results pooled from the literature.
Each numbered part is a random draw from the data of one study; scales do not carry over between parts.
UniProt Q06187, sequence (whole entry, looked up): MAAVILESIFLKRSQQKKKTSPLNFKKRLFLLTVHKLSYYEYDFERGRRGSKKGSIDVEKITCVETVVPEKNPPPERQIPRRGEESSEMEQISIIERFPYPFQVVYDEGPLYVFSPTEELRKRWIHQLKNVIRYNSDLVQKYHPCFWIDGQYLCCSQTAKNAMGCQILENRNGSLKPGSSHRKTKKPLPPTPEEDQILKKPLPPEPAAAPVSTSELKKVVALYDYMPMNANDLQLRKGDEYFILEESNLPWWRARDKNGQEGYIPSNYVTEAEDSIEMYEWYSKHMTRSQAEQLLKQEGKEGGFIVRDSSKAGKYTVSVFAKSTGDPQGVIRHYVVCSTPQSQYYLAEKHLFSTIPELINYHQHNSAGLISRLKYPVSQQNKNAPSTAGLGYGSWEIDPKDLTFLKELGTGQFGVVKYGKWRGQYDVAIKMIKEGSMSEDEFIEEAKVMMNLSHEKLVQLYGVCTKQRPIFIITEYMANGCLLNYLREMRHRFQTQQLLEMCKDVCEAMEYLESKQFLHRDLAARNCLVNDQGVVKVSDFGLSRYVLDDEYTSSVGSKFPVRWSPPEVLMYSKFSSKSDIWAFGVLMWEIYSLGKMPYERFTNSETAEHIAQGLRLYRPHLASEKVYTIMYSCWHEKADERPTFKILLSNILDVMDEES
UniProt P09619, sequence (whole entry, looked up): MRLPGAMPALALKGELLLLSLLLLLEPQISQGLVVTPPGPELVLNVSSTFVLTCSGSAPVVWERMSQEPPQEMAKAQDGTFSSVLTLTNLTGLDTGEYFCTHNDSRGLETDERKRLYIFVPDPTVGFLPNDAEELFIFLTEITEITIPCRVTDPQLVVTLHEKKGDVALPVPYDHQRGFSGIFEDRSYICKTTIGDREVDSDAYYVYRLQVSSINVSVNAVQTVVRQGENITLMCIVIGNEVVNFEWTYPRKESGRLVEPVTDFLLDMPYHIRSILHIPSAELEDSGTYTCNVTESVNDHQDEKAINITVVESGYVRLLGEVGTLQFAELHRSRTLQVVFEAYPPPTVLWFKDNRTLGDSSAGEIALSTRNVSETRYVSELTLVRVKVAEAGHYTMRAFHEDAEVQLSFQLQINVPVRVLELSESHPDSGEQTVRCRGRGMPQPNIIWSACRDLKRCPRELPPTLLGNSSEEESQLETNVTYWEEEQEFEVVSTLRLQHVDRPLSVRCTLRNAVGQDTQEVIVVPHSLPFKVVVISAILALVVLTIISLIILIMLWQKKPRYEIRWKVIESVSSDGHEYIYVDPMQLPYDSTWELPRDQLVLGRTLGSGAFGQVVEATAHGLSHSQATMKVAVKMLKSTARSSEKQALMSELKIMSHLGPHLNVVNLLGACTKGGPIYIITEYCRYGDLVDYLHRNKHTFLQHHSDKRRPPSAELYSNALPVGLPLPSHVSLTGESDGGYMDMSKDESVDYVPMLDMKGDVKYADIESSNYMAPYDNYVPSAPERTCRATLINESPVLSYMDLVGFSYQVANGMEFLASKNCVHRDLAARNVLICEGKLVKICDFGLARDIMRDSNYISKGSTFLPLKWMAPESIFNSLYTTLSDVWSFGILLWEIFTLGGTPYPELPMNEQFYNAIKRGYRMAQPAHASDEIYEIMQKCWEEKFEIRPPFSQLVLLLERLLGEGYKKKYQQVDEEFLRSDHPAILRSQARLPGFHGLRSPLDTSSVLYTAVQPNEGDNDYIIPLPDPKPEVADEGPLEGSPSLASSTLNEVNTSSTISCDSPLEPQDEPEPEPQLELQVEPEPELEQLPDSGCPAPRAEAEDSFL

Sample 1 — method: phase 2a clinical trial
SMILES: CC(C)n1cnc(-c2ccc(F)cc2)c1-c1ncc(C(=O)Nc2ccc(N3CCN(C)CC3)cc2)[nH]1
Host: patients with idiopathic pulmonary fibrosis
| item | dose | setting | patients with treatment-emergent adverse events |
| --- | --- | --- | --- |
| left bundle branch block | 30 mg once daily | Grade 4 | 0% |
| idiopathic pulmonary fibrosis | 30 mg once daily | Grade 3 | 0% |
| first degree atrioventricular block | 30 mg once daily | Grade 5 | 0% |
| electrocardiogram T wave abnormal | 60 mg once daily | Grade 2 | 0% |
| left bundle branch block | 60 mg once daily | Grade 5 | 0% |
| benign prostatic hyperplasia | dose not given | Grade 5, maximum intensity, all drug arms total | 0% |
| electrocardiogram QT prolonged | dose not given | Grade 4, all drug arms total | 0% |
| metabolism and nutrition disorders (SOC) | 60 mg once daily | Grade 3 | 0% |
| left ventricular dysfunction | 60 mg once daily | Grade 4 | 0% |
| drug-induced liver injury | 30 mg once daily | Grade 1 | 0% |

Sample 2 — read-out: enzyme activity; action: inhibitor; tested at: 10 µM
Target: Calcium/calmodulin-dependent protein kinase type II subunit alpha (CAMK2A, Homo sapiens, UniProt Q9UQM7)
UniProt Q9UQM7, sequence (whole entry, looked up): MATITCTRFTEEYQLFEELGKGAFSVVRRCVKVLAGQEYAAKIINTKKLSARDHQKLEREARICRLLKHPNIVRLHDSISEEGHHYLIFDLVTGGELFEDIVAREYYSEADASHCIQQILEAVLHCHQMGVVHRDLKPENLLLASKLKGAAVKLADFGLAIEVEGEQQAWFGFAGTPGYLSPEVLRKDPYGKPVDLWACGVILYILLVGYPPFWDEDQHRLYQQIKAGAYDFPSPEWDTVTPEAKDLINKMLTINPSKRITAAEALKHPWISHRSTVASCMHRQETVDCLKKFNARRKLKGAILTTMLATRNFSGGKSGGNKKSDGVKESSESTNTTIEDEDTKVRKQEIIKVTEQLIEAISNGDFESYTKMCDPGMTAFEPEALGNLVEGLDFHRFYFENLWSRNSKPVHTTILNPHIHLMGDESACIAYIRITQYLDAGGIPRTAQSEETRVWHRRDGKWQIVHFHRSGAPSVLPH
| SMILES | inhibition |
| --- | --- |
| CCCCNC(=O)NS(=O)(=O)c1ccc(C)cc1 | -7% |
| CC(C)=CCC[C@H](C)CC=O | -4% |
| OC[C@H]1O[C@@](CO)(OC[C@@]2(OC[C@@]3(OC[C@@]4(OC[C@@]5(OC[C@@]6(O[C@H]7O[C@H](CO)[C@@H](O)[C@H](O)[C@H]7O)O[C@H](CO)[C@@H](O)[C@@H]6O)O[C@H](CO)[C@@H](O)[C@@H]5O)O[C@H](CO)[C@@H](O)[C@@H]4O)O[C@H](CO)[C@@H](O)[C@@H]3O)O[C@H](CO)[C@@H](O)[C@@H]2O)[C@@H](O)[C@@H]1O | -4% |
| CCC/C=C\C=C\CCCCCCCCCO | 2% |
| CC(C)=CCC[C@](C)(O)[C@H]1CC[C@]2(C)[C@@H]1[C@H](O)C[C@@H]1[C@@]3(C)CC[C@H](O)C(C)(C)[C@@H]3CC[C@]12C | -49% |
| CC1(C)OC(=O)C=C[C@]2(C)[C@H]3CC[C@@]4(C)[C@H](c5ccoc5)OC(=O)[C@H]5O[C@]54[C@]3(C)C(=O)C[C@@H]12 | -2% |
| COc1cc(COC(=O)CCCC/C=C/C(C)C)ccc1O | -40% |
| CCC/N=C1\S/C(=C\c2ccc(OC[C@H](O)CO)c(Cl)c2)C(=O)N1c1ccccc1C | 4% |
| CCCOc1ccc(S(=O)(=O)N2CCN(CCO)CC2)cc1-c1nc2c(CCC)cn(CC)c2c(=O)[nH]1 | -7% |

Sample 3 — read-out: enzyme activity; action: inhibitor; tested at: 77 µM; baseline: untreated
Target: DNA polymerase theta, ATPase domain (POLQ, Homo sapiens, UniProt O75417)
UniProt O75417, sequence (whole entry, unmodified, looked up): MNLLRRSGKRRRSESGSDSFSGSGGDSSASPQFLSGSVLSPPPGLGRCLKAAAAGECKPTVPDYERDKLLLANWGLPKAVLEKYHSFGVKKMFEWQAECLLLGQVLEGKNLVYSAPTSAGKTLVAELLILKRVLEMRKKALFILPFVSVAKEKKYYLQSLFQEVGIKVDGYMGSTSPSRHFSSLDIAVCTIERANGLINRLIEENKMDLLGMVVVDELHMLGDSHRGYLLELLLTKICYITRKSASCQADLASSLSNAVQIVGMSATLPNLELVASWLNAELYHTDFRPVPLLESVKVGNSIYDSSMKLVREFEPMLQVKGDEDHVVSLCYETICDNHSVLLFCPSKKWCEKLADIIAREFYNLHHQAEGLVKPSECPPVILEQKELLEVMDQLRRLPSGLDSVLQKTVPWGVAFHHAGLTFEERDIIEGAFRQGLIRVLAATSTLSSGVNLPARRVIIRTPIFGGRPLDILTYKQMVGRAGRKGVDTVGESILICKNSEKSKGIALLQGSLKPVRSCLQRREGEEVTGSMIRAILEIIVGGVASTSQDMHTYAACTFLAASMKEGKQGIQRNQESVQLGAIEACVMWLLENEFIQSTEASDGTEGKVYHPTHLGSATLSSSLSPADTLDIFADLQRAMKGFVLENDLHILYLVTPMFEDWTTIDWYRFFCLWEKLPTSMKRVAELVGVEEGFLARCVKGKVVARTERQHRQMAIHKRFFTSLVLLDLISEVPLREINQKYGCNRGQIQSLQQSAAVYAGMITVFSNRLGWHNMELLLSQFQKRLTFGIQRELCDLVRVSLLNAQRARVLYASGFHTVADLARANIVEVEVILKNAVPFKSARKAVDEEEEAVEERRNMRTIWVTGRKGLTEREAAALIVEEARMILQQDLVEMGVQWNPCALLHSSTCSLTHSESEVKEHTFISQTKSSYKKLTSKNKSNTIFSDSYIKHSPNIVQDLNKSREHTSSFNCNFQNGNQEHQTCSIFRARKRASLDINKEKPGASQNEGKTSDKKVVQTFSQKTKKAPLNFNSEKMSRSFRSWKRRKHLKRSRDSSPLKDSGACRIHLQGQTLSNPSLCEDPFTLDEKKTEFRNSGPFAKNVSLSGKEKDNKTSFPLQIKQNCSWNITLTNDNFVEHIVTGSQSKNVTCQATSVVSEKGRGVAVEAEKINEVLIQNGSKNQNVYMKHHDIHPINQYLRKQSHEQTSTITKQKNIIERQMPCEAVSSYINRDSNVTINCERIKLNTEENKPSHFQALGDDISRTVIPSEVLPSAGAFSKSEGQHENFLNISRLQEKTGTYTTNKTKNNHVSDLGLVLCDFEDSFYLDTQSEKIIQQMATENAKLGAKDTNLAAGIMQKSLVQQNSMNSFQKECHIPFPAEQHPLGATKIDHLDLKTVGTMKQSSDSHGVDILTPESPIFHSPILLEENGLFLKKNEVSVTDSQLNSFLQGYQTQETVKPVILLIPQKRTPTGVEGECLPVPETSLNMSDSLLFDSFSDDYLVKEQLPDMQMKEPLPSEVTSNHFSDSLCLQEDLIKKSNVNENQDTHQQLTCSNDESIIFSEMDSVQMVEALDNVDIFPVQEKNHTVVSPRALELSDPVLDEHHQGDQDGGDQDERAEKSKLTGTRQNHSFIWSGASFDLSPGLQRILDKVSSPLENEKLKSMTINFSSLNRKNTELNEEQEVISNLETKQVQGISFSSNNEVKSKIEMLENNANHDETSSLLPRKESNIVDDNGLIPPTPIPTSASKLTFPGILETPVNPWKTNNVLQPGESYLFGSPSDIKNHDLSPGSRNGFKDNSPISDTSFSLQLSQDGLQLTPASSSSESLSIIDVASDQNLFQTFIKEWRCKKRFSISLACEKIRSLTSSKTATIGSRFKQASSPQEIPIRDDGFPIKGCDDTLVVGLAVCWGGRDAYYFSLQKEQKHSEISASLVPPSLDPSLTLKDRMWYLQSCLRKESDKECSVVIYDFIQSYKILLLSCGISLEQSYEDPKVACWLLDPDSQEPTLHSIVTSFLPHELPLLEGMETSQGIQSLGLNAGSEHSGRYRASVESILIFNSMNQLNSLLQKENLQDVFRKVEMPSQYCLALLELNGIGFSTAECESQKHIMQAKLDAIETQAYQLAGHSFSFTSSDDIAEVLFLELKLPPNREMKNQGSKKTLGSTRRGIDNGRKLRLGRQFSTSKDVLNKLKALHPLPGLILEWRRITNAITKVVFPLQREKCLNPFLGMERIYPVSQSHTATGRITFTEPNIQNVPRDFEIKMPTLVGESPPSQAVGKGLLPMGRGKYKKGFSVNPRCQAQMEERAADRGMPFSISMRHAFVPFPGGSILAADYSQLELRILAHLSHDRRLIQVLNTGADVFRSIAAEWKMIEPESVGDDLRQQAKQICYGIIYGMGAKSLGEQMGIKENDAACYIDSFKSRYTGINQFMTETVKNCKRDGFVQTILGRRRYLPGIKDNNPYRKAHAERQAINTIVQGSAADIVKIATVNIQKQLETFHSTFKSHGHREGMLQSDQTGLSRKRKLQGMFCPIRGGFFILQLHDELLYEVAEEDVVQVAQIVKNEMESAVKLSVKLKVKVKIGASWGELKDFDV
| Compound | remaining activity [%] |
| --- | --- |
| COc1cc2c(cc1Cc1cccc(Cl)c1F)c(=O)c(C(=O)O)cn2[C@H](CO)C(C)C | 66.1 |
| C[N+]1(C)C[C@H](O)C[C@H]1C(=O)[O-] | 99.1 |
| CC(=O)N[C@@H](CC(C)C)C(=O)N[C@@H](CC(C)C)C(=O)N[C@H](C=O)CCCN=C(N)N | 102 |
| CCCCCCCCCCCCCCCC[N+](C)(C)CCN(Cc1ccc(OC)cc1)c1ncccn1 | 102 |
| CC1(C)C(=O)N(CCN2CCC(C(=O)c3ccc(F)cc3)CC2)c2ccccc21 | 111 |
| Cc1cccc(C(=O)NCN2CCN(c3ccccc3C#N)CC2)c1 | 98.6 |

Sample 4 — read-out: cell-free assay; method: competition with immobilised ligand; tested at: 1 µM
Structure (SMILES): CO[C@@H](C)c1c(Nc2ccc([C@@H](N(C)C(=O)C3CCS(=O)(=O)CC3)C(F)(F)F)cc2)cnc2cc(Cl)nn12
| target | remaining binding [%] |
| --- | --- |
| CDK2 (Homo sapiens, UniProt P24941) | 100 |
| PDGFRB (Homo sapiens, UniProt P09619) | 100 |
| BTK (Homo sapiens, UniProt Q06187) | 100 |
| PRPF4B (Homo sapiens, UniProt Q13523) | 91 |
| PAK4 (Homo sapiens, UniProt O96013) | 100 |
| SYK (Homo sapiens, UniProt P43405) | 90 |
| PAK2 (Homo sapiens, UniProt Q13177) | 81 |
| ALK (Homo sapiens, UniProt Q9UM73, C1156Y) | 79 |
| COQ8A (Homo sapiens, UniProt Q8NI60) | 100 |
| EPHA5 (Homo sapiens, UniProt P54756) | 100 |
| FRK (Homo sapiens, UniProt P42685) | 91 |
| STK17B (Homo sapiens, UniProt O94768) | 98 |
| MAP3K13 (Homo sapiens, UniProt O43283) | 100 |
| Ribosomal protein S6 kinase alpha-5, C-terminal kinase domain (RPS6KA5, Homo sapiens, UniProt O75582) | 70 |
| MTOR (Homo sapiens, UniProt P42345) | 100 |
| EPHA6 (Homo sapiens, UniProt Q9UF33) | 100 |

Repeated from above (sample 2):
| SMILES | inhibition |
| --- | --- |
| CC(C)=CCC[C@H](C)CC=O | -4% |
| OC[C@H]1O[C@@](CO)(OC[C@@]2(OC[C@@]3(OC[C@@]4(OC[C@@]5(OC[C@@]6(O[C@H]7O[C@H](CO)[C@@H](O)[C@H](O)[C@H]7O)O[C@H](CO)[C@@H](O)[C@@H]6O)O[C@H](CO)[C@@H](O)[C@@H]5O)O[C@H](CO)[C@@H](O)[C@@H]4O)O[C@H](CO)[C@@H](O)[C@@H]3O)O[C@H](CO)[C@@H](O)[C@@H]2O)[C@@H](O)[C@@H]1O | -4% |
| CCC/C=C\C=C\CCCCCCCCCO | 2% |
